Experimental data of several laboratories.
Each numbered part is a random draw from the data of one study; scales do not carry over between parts.

Series 1 — technique: universal PBM; molecule type: double-stranded DNA, one strand shown; medium: in vitro; tested at: 600 nM; reading: higher = stronger binding
Target: Sal-like protein 4, full length isoform A (SALL4, Homo sapiens, UniProt Q9UJQ4, residues 1-1053)
UniProt Q9UJQ4, sequence (whole entry, looked up): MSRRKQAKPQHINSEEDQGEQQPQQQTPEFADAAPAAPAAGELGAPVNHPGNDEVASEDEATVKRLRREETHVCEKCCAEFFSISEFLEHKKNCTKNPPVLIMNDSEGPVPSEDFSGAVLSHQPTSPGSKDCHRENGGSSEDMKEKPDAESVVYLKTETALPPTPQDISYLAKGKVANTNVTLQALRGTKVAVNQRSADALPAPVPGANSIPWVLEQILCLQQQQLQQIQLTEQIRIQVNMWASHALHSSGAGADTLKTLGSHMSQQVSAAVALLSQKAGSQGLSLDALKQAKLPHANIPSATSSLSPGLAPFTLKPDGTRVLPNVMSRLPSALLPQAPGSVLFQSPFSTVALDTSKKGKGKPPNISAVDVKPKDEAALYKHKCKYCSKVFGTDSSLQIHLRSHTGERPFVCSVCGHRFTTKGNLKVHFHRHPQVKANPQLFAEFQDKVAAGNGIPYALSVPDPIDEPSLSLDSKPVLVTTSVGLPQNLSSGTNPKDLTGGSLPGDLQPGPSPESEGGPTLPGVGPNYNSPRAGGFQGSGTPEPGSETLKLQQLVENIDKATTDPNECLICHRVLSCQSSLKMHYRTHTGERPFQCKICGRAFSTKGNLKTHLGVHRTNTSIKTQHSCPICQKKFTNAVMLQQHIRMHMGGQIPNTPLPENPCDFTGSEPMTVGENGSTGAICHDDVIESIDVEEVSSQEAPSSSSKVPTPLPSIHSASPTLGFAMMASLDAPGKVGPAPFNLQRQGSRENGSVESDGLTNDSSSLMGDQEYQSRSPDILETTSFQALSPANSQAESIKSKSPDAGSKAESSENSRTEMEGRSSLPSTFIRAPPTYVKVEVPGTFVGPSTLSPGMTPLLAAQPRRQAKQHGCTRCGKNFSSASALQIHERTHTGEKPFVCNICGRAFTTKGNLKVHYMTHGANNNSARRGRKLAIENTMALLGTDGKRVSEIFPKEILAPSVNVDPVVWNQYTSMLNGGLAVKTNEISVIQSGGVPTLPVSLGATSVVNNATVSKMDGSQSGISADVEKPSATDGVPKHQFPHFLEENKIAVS
Setting: 8-mer, flanks averaged, mean of replicates
Sequence | E-score
CTAAGGTC | -0.0236
CAGACCTG | -0.231
ACCGATAT | 0.0782
AGGTGCGC | -0.171
GATAAAAA | 0.307
CAGCAAAA | 0.123
TATTTTAA | 0.379
ACATGCCG | -0.0196
GCACTTAA | 0.132
AAACACAC | 0.0202
AAGTGGTA | 0.0133
CAGAGATA | 0.234
CATTACGG | -0.103
AAACTAGA | 0.167
AATGGCAC | -0.00249
AACCGCAG | -0.283
GACCAACC | -0.266
CTTGCCCC | -0.284
CGACAGGA | -0.00558
ACGCCAAT | 0.0729
CGAATAAC | 0.122

Series 2 — technique: RNAcompete; molecule type: RNA; medium: in vitro; tested at: 20 nM; setting: 7-mer, probes averaged, single round; baseline: mean of 7-mers; reading: higher = stronger binding
Target: PABPC1L2, full length, GST fusion (mouse, UniProt A0ABA7IW68)
Target sequence (chain): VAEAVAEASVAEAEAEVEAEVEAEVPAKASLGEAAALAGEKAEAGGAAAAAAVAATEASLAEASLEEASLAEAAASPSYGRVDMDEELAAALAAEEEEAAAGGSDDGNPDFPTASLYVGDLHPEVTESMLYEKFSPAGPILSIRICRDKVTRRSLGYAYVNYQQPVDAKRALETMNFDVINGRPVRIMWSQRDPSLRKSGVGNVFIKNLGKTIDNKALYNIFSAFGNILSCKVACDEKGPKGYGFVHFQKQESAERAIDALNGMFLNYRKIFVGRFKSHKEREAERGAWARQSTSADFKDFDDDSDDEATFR
Sequence | 7-mer Z-score
UUAAGCC | -0.22
CCUAACA | -0.193
AUAGGCU | 0.00436
AUCUUUG | -0.255
AGCGGCG | 0.131
AGCAGAA | 0.379
AUAUGUA | 0.0805
AAGGUAC | 0.2
GCUAUUC | -0.315
CGGGCUG | -0.0591
GUUUGGC | -0.345
AGUCCUA | -0.356
AUGUUGC | -0.199
AUUAUGA | 0.0678
UAGGUUC | -0.244
ACGUUUA | -0.257
GUCAUAG | -0.193
AGCAGCU | -0.19
UAUUCUC | -0.322
AGAUACA | -0.0881
CAGGAUG | 0.122
UUCGGAU | -0.291
UUGUCUA | -0.329
AACUCAC | -0.0917
GUGAAAU | 0.0116

Series 3 — technique: RNA Bind-n-Seq; molecule type: RNA; medium: in vitro; tested at: 365 nM; baseline: no-protein control; reading: higher = stronger binding
Target: RNA binding protein fox-1 homolog 2, RRM domain, GST-SBP tag (RBFOX2, Homo sapiens, UniProt O43251-10, residues 100-194)
Setting: natural RNA segment, single round, ends assumed
Construct (chain): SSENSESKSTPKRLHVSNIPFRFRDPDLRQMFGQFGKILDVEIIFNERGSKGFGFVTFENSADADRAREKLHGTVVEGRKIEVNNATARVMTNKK
Sequence | RBNS enrichment (R)
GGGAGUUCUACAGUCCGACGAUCCUGCACCCCCUCAUAGCAGUAGUGGCUUCGCCAUUCUGUUUUCUGCAGUGUCCUGUACAAAACUGUGCUGUGACUGUGCGGUAGGCCUGGACAUGGCAAAGAGAAUACAGUGGAAUUCUCGGGUGCCAA | 0.207
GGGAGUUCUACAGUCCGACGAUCCCCACUCCGUACUGUAUUUUGCCAUUCUGCCGUAGCUAGAUGUUCUGUGGGGUUUGUUAACAUGGAACUACUCAGCUUUCUUUCAGUCAACCCAUAAGCAAAUCAGAUAAUGGAAUUCUCGGGUGCCAA | 1.4
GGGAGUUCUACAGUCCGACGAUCUGCCGAAAACAGGAGCAAAUGGCGUUUUAUAAAUUAUUUUUUUGAAAUAAAGCUCUGUGUGCCUGGGUCUUCCCUGAGCAACAUGGAGUGGGGUGAGGUGGAGGGAUCCCUGGAAUUCUCGGGUGCCAA | 0.881
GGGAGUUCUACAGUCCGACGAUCCCUGCCUCGAGGACUGAUACUGCAGUGACUGCCGUCAGCUCCGACUGCCGCUGAGAAGGGUUGAUCCUGCAUCUGGGUUUGUUUACAGCAAUUCCUGGACUCGGGGGUAUUGGAAUUCUCGGGUGCCAA | 0.62
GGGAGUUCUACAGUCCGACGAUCACUUCGCUGCUGCUGAGAGCAGGAGAAUUUUCUGCAGCUGUUUCAAAGUUGUGGCCUGGCCUUGAAUCCUCUAUUAAUUACUGUGUGAGCCAGAGGGAACUGCCCUGCAAUGGAAUUCUCGGGUGCCAA | 0.881
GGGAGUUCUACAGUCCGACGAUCUCUCCUAACUUUCUGCUUUAGCGUAAUUGCUCAGAGUAGAGAGCCCCCACAAAGUUAUUUAAAAGAUGCCCUAGCAGCAAUCCACCAGUUUUUCUAAGCUAGAACCUUUGUGGAAUUCUCGGGUGCCAA | 0.441
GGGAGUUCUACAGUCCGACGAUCCAGGACAUGGCAGGCUUCGCACCCUUUGUCAACCUACAGGUUGACUAACUUUCCUUGGGGUGGGAGCACAGCUGGACUGUGUAGCCCGGGCUUGACCCUGAGCCAUAGGGUGGAAUUCUCGGGUGCCAA | 0.382
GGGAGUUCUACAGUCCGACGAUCAAGCCACCAGCUAUUUCCUGGUGACACAAGCUCUUCUCAGGCGGGGCUGCCUGCAGGCUCCCGUUUUCUGAGCCCACGCUGCCCACAGCUGACCCCAGCGCAGCCCCGGGUGGAAUUCUCGGGUGCCAA | 0.207
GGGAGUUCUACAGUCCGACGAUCUGCAUUUCAAACUAAUCCAAUAUUUAGUGUUUCACAGAAACACUAGAAAACGUUGAACACUCCUACUGCCUGGAUAUAUGGUAGUGCAGUUAUGUUGUUUAUGGCUCAAGUGGAAUUCUCGGGUGCCAA | 0.31
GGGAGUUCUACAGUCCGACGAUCUCCAUGAUUCUGAAGCAUGCACACCUCUGAAGACCCCUGCAUGAAAAUAACCUCCAAGGACCCUCUGACCCCAUCGACCUGGGCCCUGCCCACACAACAGUCUGAGCAAGUGGAAUUCUCGGGUGCCAA | 19.8
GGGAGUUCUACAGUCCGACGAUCAAAAUUCAGCAGAUCUCCUUUCUAGGUGCAACUGUUCAGUGAAUUCCCUCACUAAAAGCUUAAGCAAUUGUCAGUCAGAAUUCUGUUUGCUGAGUGCUGGUGCAGGCUUUUGGAAUUCUCGGGUGCCAA | 0.765
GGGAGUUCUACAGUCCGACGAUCUAUUAACGAGAUGGCCCUGGCAGGCGGGAACAAAUCUGCCUCCAUGCACUGCUUCCUGUAGUCUUUUAGAAAGUAACUCCAGGACAUCGAAGUGCCCAGAUUUGACUCCUUGGAAUUCUCGGGUGCCAA | 0.258

Series 4 — technique: protein-binding microarray; molecule type: double-stranded DNA, one strand shown; medium: in vitro; tested at: 0.8 µM; setting: whole 60-bp probe, no competitor; reading: higher = stronger binding
Target: Centromere-binding protein 1, full length, N-terminal tag (CBF1, Saccharomyces cerevisiae, UniProt P17106, residues 1-351)
UniProt P17106, sequence (whole entry, looked up): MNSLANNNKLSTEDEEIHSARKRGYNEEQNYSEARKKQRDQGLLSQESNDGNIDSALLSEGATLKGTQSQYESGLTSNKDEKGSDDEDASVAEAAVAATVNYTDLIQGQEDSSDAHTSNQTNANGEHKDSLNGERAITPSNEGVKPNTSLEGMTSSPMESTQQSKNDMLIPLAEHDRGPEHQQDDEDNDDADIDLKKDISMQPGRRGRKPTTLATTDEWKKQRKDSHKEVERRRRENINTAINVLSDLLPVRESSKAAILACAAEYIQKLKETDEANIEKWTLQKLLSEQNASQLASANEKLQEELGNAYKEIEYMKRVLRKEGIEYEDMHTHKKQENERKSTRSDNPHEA
Sequence | fluorescence intensity
GAATGCAATAGACAGCACGAGTCTTTGAAAAAGTAGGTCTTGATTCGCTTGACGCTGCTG | 752 a.u.
CTATTCCATAGTTCTCATCAGTTGCAAACAGTATTCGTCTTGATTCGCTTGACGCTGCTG | 560 a.u.
CTATACTACCGGTCAGCTGTGGTTCTGTGTCTGTTCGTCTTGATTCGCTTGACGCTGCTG | 589 a.u.
CTAAGAGCAGAAAGATACATCAGAACAATAGTATTCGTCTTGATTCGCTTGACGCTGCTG | 520 a.u.
CTAAGAGACCCAGCGCACGTATGCAAAAAAATATTCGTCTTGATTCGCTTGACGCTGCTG | 550 a.u.
CTAAACACTAAGCGTTATGTGACCAATGTATAATTCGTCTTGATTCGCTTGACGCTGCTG | 527 a.u.
GAAGGGTGTGGGTGTGGTGTGGGTGTGGTGGGTTAGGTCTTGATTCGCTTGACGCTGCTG | 556 a.u.
TGTACGAAGCTATATCACGCGGTTATAGTAGTTAGGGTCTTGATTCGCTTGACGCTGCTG | 963 a.u.
CCTAACTACTATATTCACGTGTAATAGCTTCGTACAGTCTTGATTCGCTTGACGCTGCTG | 2550 a.u.
CCTAACTACTATATTTGAGTCACATAGCTTCGTACAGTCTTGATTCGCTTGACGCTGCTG | 591 a.u.
GAATTGATCACTTTACACGTCAAGGTCAAAACATAGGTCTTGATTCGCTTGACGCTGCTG | 558 a.u.
CCTAACTACTATATAGAGGTGACATAGCTTCGTACAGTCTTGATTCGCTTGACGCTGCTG | 512 a.u.
CTACCGCTGGTAATCGTGGTGACTCCAGAACCATTCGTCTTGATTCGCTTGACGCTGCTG | 522 a.u.
GAACTTAGTAAGAGTCTCCTGTAGTTTTGCGTTTAGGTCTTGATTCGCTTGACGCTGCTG | 482 a.u.
CTAAAGTGTTTTCTTGATGTTACTGCCCATGAATTCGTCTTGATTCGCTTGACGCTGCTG | 558 a.u.
TGTACGAAGCTATCAGATGTCACTATAGTAGTTAGGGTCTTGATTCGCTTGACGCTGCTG | 562 a.u.
GAACACAACACAATGCTCGTGGGTCGTTACCCGTAGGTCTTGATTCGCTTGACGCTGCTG | 493 a.u.
CTAGATTTGCTGAGTCATGTTGTGGCTTTTCTTTTCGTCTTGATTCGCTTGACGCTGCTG | 559 a.u.

Series 5 — technique: protein binding microarray; molecule type: double-stranded DNA, one strand shown; medium: in vitro; tested at: not given; baseline: not given; reading: higher = stronger binding
Target: Histone acetyltransferase KAT6A, both winged helices, GST fusion (KAT6A, Homo sapiens, UniProt Q92794, residues 1-181)
Setting: 8-mer, flanks averaged, mean of 2 arrays, mostly near background
Construct (chain): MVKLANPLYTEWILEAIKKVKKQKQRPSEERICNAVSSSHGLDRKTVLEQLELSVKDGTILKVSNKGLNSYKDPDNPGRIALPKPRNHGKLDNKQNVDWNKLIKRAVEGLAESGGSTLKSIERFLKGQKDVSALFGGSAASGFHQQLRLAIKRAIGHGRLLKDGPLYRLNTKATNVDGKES
Sequence | E-score
AGTATGAC | -0.153
AGATTGCT | -0.0737
ACTCCTTG | -0.0131
GGATAAGA | 0.0888
ACTAACAG | -0.0626
AACTAGAC | 0.0328
AAGGACAG | -0.0466
GGGACTGA | -0.0692
AATTAGAC | -0.168
GGACAGCC | 0.0549
ATAATCTG | -0.113
ATGCGGTA | 0.189
AGCACTGA | -0.243
ACAACTAG | -0.0637
ACGGGTCG | 0.243
AGCTCAGG | -0.0328
CAACACCA | -0.161
TGGGGTAA | -0.149
CGATGCCA | -0.147

Series 6 — target: Sox, HMG box (Pigoraptor chileana); technique: Spec-seq; molecule type: double-stranded DNA, one strand shown; medium: in vitro; tested at: not given; setting: whole probe, mean of replicates; baseline: not given; reading: lower = stronger binding; constant ends, left off below: GAGTCGTCTCGTCAGCAC … CCGTAGAGCACTCAGGTC
Residues (chain): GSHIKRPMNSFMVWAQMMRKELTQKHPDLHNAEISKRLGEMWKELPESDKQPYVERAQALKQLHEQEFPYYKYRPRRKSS
Sequence | relative binding energy
TGTGGTT | 0.0845 ln ratio
GGCCGTT | 1.09 ln ratio
TTTTGTT | -2.54 ln ratio
AATCGTT | -2.46 ln ratio
CATCCAG | 0.283 ln ratio
CATGACG | 0.359 ln ratio
AGTTGTT | -2.03 ln ratio
CATTACT | 0.282 ln ratio
CATCGAA | 0.346 ln ratio
GCTGGTT | 0.856 ln ratio
CGAAGTT | 1.03 ln ratio
GTGCGTT | 1.58 ln ratio
GAGTGTT | 0.367 ln ratio
CTACGTT | 0.664 ln ratio
CATGCCT | 0.811 ln ratio
CATCGAT | 0.401 ln ratio
CATAGTT | -0.76 ln ratio
CATGGTG | 0.536 ln ratio
AGAAGTT | 0.0953 ln ratio
CATCCTA | 0.108 ln ratio
CATGCAG | 0.534 ln ratio
TAACGTT | 0.892 ln ratio
TAGAGTT | 0.163 ln ratio
CATTCGT | 0.696 ln ratio
CATAAAT | -0.21 ln ratio

A few entries again (series 5):
Sequence | E-score
ACGGGTCG | 0.243
ATAATCTG | -0.113
AACTAGAC | 0.0328
GGATAAGA | 0.0888
AGCACTGA | -0.243
GGGACTGA | -0.0692
ACTCCTTG | -0.0131
ATGCGGTA | 0.189
AAGGACAG | -0.0466
TGGGGTAA | -0.149
CAACACCA | -0.161
CGATGCCA | -0.147
GGACAGCC | 0.0549
ACAACTAG | -0.0637
ACTAACAG | -0.0626
AGCTCAGG | -0.0328
AGATTGCT | -0.0737
